Measurements from different studies.
Parts stem from different laboratories: compare values within a part only.

Block 1
Target: Ras GTPase-activating protein-binding protein 1, C-terminal RGG region (G3BP1, Homo sapiens, UniProt Q13283)
Chain of UniProt Q13283 (whole entry, looked up): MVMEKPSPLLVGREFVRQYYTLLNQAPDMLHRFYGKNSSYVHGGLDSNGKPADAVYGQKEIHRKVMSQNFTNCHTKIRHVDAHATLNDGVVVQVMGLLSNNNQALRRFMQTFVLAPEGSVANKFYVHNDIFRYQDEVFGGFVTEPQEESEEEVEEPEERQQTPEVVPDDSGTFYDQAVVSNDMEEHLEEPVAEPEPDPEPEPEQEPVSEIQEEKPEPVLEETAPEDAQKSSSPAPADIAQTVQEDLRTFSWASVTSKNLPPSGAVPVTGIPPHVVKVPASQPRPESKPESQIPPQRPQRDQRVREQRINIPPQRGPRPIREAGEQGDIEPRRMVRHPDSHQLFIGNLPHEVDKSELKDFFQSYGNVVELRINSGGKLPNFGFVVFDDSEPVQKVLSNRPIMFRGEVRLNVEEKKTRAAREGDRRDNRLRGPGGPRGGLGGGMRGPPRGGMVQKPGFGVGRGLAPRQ
Method: RNA Bind-n-Seq
Form: RNA
Medium: in vitro
Tested at: 1 µM
Setting: whole 134-nt RNA, ends assumed
Added: 150 mM KCl
Relative to: input library
Direction: higher = stronger binding
Measurement: log2 enrichment
Shared flanks, not repeated: GGGAGUUCUACAGUCCGACGAUC … UGGAAUUCUCGGGUGUCAAGG
UUUCUAGCUGGACCAGUCCGGUACGCUCCGGGCCUCACCGAGGAAGUCCCACCCUGCAGGGGAACCGACUCUGGCCGGCCCUAACCCCUC: -1.19
AGUCCUGUGCUACACAUCGUAUGUACCGAAUCGGGUUUUUUUGGGAAAAAGGGAGGGAAAGUAUUAUGUUACGCCGUUCGGAUCUGCACU: 0.831
AGUCCUGUGCUACACAUCGUAUGUACCGAAUCGGCCCCCGGCCCCCGGGGCCCCCGGAAAGUAUUAUGUUACGCCGUUCGGAUCUGCACU: -1.5
UAGCCAAGAGUCGAAGCUAAACCAGAAGUUCAAUCUCAGCCACCUCGUGUGCGUGAACAACGACCUAGAGAACGACCUGGUUUUCCUCCU: -0.629
UGUGUCUUGCUGAAUCAGGGCUCUCUUAUCCCUGCCAUCGACUUACAGUGGGAAGAAGAUCUUCACCUGCACAGACCCGGGAACAGUCGG: -0.383
CUGUGCUACACAUCGUAUGUACCGAAUCGGGGUUUUUUUGGGGUUUUUUUGGUUUUUUUGGAAAGUAUUAUGUUACGCCGUUCGGAUCUG: -1.31
CCUCAAGUCCUGUGCUACACAUCGUAUGUACCGAAUCGGGGCGGGGCGGCGGGAAAGUAUUAUGUUACGCCGUUCGGAUCUGCACUUCCA: -0.298
UCAAGUCCUGUGCUACACAUCGUAUGUACCGAAUCGGGUUUGGGUUUGGUUUGGGAAAGUAUUAUGUUACGCCGUUCGGAUCUGCACUUC: -1.03
UAACUUUAGAGGAGGAUCUGAUGGAUAUGGCAGUGGACGUGGAUUUGGGGAUGGCUAUAAUGGGUAUGGAGGAGCACCUGGAGGUGGCAA: -0.64
CACAGACAACACGCACCCACACAGACACAGAGGGAAGGGGUUGGGAUGGGGACAGGGUGCACAGCAGGGCGGUGUAGGACCCCAGCCCCU: -0.717

Block 2
Target: RING finger protein unkempt homolog, zinc fingers 1-6, GST-SBP tag (UNK, Homo sapiens, UniProt Q9C0B0, residues 30-357)
Chain of UniProt Q9C0B0 (30-357, looked up): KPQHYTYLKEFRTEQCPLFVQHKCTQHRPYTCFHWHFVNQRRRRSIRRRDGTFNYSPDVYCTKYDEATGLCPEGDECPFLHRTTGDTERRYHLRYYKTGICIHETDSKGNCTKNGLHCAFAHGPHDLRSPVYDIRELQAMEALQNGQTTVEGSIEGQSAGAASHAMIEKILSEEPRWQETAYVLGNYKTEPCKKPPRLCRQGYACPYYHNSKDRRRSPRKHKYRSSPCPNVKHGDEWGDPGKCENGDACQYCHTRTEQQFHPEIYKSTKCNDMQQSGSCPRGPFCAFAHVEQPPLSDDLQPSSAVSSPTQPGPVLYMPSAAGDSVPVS
Method: RNA Bind-n-Seq
Form: RNA
Medium: in vitro
Tested at: not given
Setting: RNA with constant flanks, human and mouse sites, ends assumed
Relative to: input RNA pool
Direction: higher = stronger binding
Measurement: bound/input enrichment
Shared flanks, not repeated: GGGAGUUCUACAGUCCGACGAUC … CAACAGAGGAUUGAGCAUCA
AGAACAAAUAAAGGGCUCCAGCUACGGCAUGGCAAUGACCAGCGAGUGUUCCGCCUAGAGUUUGUGUCCAACCAAGAAUUCACUGAAAGUGAAUUCAUGAAGUGGAAAGAAGCGAUGUUU: 0.211 ratio
GGUCAUCGCGCCCUUUCCCCUGCCGGUGUCCUGCUCGCCGUCCCCGCCAUGCUGUCUCUAGACUUUUUGGACGAUGUGCGGCGGAUGAACAAGCGGCAGCUCUAUUAUCAAGUCCUAAAU: 0.108 ratio
UAGUAUUAUAUAUACUGAACCUUCAGACUGUUAAGAAUCAAUGUAACUUUUUUUUUUUACUGUUAUUGUAAGCAACUAAUAUUUCACUGCACGUUUCCCACACUGGUGUUCAUUCCUAAC: 0.859 ratio
UCAACUAAUCGUGGUGUAAUUGUUGAAUCAGCGUAUUCUGAUAUAGUAAAAAUGAUCAGUGCUAACAUCUUCCGGACACUUCCUCCAAGUGAUAAUCCAGAUUUUGACCCGGAAGAGGAU: 0.28 ratio
GAGCCACCCGUUUUGCACUUCUCUCGCUUUUCUUCCUCCCUCUUUGGCUCCCAUUUCAAUGGACAGAAAGACUAUGUGGCAUCUCUAUUUUCAUUCACUUGGUUUAUUGUCUUGGUAUGU: 0.353 ratio
UCUCCCAUUCAAAUGUCAUCAUCCUUUUCUAUCUUGCAGGCAGGAUUGAUUUGAACAGGGAUUACUUCAACACACAUUUGUUUGUCUUUAUCUUUGUGUCAUUAUUGCAUGAUGUUGUUC: 0.139 ratio
CUCUGGGCUGUUUCAUAAGCAAGUGGUUUUAAUUAACUCACAAAGCCUUUCUAGACAUUAAUAUUUAUUUUAUUAUUAUUUUUUGUUUUGUUUGGUAUACAUACUACCCAGCAUCUCUUU: 11.7 ratio
GCAUUUGAAAGCUCAUGACAGAGCUAAAGAUCUGCCCCCCCUUCUCUCCCCUAUUUCUUUUAGGUGCCAUCUCAGUCUAAUCAUGGGUAUAAAUUCACCUUGGCCAGAGAAACUCACUAA: 0.435 ratio
GCCAUCAUCCCCUAUAUCCCCACUCUCAUCACGCAGCUCACACAGAAGCUGCUGGCUGUUAGUAAGAAUCCCAGUAAACCUCAUUUCAAUCACUACAUGUUUGAAGCAAUAUGCUUGUCU: 0.377 ratio
AAUAGCCUUCUAUUUUUAAUAGGAACCUAGAGAAUACUUAGGAUUAUCUAGAGUUGUUUCUUUAGAAUCUAGAACUAUUUAUUUGUAUUUAAACAAUGUCUAUGAUUUGUACCAAUUCUU: 1.88 ratio
UAUGAUUUGGCUGGUUCGUGUAGAGGGGUCAAGGUCAUGUUUAAUGGAAAGAAAUUGCCUGUAAAUGGAUUUCGCAGUUAUGUAGAUCUUUAUGUGAAAGACAAAUUGGAUGAAACUGGG: 0.482 ratio

Block 3
Target: Interferon regulatory factor 5, full length, phosphomimetic (IRF5, Homo sapiens, UniProt Q13568-2, residues 1-514, K96S/S451D/S453D/S456D/S462D)
Method: protein-binding microarray
Form: double-stranded DNA, one strand shown
Medium: in vitro
Tested at: 250 nM
Setting: 60-bp whole probe
Added: salmon DNA 0.4 mg/ml
Relative to: random background probes
Direction: higher = stronger binding
Measurement: log fluorescence
Shared flanks, not repeated: GCCTAGCAC … GTCTTGATTCGCTTGACGCTGCTG
TAAGGTTTCGACACTGGGTTAGTGCTA: 3.95 z-score
GGCGGTATCGACACTGGGGACGTGCTA: 1.64 z-score
ATTTTTTTCTAAGTAAACCCGTGCTAG: 1 z-score
TTAGAACTGCGTATCGATTAGTGCTAG: 3.22 z-score
TTAGGTATCGTTTTCCTTTAGTGCTAG: 4.15 z-score
GGCGGACTGGGTTTCGGGACGTGCTAG: 2.02 z-score
TTGTGTTTTCATTTTATGACGTGCTAG: 2.27 z-score
CACCTTCTTCATCAAGGACAGTGCTAG: 0.391 z-score
GGGCCGAGGCTGTGGCCACCGTGCTAG: -1.24 z-score
TAAGGACTGGACACTGGGTTAGTGCTA: -0.256 z-score
TCAGCTTTGCAGATAAAACTGTGCTAG: 0.268 z-score
GACGGTTTCGGATTGGGGACGTGCTAG: 5.2 z-score
TTAGAACTGAGTTTCTATTAGTGCTAG: 3.55 z-score
TTAGATCTCAGCCTCGATTAGTGCTAG: -0.0978 z-score
GACAGTTTCGGACTGGGGACGTGCTAG: 6.78 z-score
TTAGAACTGACTCTCGATTAGTGCTAG: 0.668 z-score
TTAGCTTTCGGGACTGGGTTAGTGCTA: 7.42 z-score
TTTGGTATCCTTATCCTTTAGTGCTAG: 0.414 z-score
TTAGGTATCCTTCACCTTTAGTGCTAG: 0.135 z-score
TTACGTCTCGGTCTCGGTTAGTGCTAG: 1.7 z-score
TTGGATATCAGACTGGATTAGTGCTAG: -0.0965 z-score
TCACATTTTGGTTTTCTACTGTGCTAG: 1.58 z-score
GACGGTTTCGGGTTTCGGGTCGTGCTA: 8.64 z-score
GACGGTTTCGGACTGGGGAAGTGCTAG: 4.5 z-score
GACGGTTTCGACAATCGGGACGTGCTA: 5.21 z-score

Block 4
Target: RNA binding protein fox-1 homolog 2, RRM domain, GST-SBP tag (RBFOX2, Homo sapiens, UniProt O43251-10, residues 100-194)
Method: RNA Bind-n-Seq
Form: RNA
Medium: in vitro
Tested at: 365 nM
Setting: natural RNA segment, single round, ends assumed
Relative to: no-protein control
Direction: higher = stronger binding
Measurement: RBNS enrichment (R)
Shared flanks, not repeated: GGGAGUUCUACAGUCCGACGAUC … UGGAAUUCUCGGGUGCCAA
Target sequence (chain): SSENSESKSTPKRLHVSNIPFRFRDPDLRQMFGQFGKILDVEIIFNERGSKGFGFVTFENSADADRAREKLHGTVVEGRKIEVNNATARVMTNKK
UUUUUGGAAAUGUAGCAUUUUAUACUUUCAAGUGUUAUAAAAAAAAAGAAAAAGAACAAAGAAACCCUUUAUUUCAUUAAAUGAUUUUUUCUGGUGGUUGUCAAGAAACA: 1.04
UGGGGAAGCACUGACGGCCACUCACUCACCCUGUGCUGCUGCAAGUUUGACAGAACCACAUCACAUCGUGGAGAAGCUGGUGCAGGAGUUCCUAGAGCCCCAGGGUCAAC: 0.3
GGUGGCCACUCAGUGAGGAGGCUCUCUGGGGUCCAGUGUUUGGAAGAGGAGGAAAGGGGACCAAAGGGAAGUGAGGUCCUAGAGCGUUGACACUGAGGGAAGUCCUAUCU: 0.505
GAGACUUUGAGAAACAUGGUGAUAGGCAGGGGCCUUUCCUACCAUGUUUCAAUACCUACAAACCUAUUGAAAGAGAACAGUAGGUAAAACAUUUCCUAAAGUUGAAGCAA: 0.293
GGGGACAGAAAAUACUCAUCUGUCCCCAGCACAGCCCCCACCCCACCCCCCAUAGCUGCUGAGACUGGCUCACAGCCCAAGGGGGCUGGGCUGGAGGGGAAGGCUGGGAC: 0.405
UCUAUCCAUAUGCUAUCGAGUAAUUAUAGAAGCAAUUAACACUCACUGUUCUUGCCUCUGGUGAGAUAUUUUUCUCCUGUAGUUAACAGAUAUUGGGUGGGGGGAGGGGA: 0.618
UAAUCCAAACUCUAUGAAAGCAAUUUUAAAAAUUAUUAAGGUUUUAUGAAGUUGACAAAAUCUAACUAUAUUUGGUGCAUCACAAUGGACACAGAAUGCUGCUGCUCCUC: 0.4
AUACACAUGGAGUAAUUGAAUGACUUUCUCUUUUGGCAUCUGUAUGUGCAGAAUACUCAACAAUGUUCAAAGACCUUCUUAACUAUUCAGAAGGCAGGAAGUCCUACACC: 0.505
UAAUUGUGAGAUUUUUCCCAAAUUGAGAUACAGAAGAAAAUAUAGUUUGAAUCUGAAAUUUAACACUUAUUUAUGUAAAACACUUUAUUUAAGAUAUUUUCUAAUGAUUU: 0.599
UUCUUUUACAAAUCAUAAUUAGUACUUUUGGUUAUUACCGUCUUCAGUGUUAGCCCAAAGAUUCUGAGGUUUAGAAAAAAAUUAUGUAAGAUCUGAACAUCAGUUUGCAG: 0.349
AGUAAAGUGCAAUUUCAUUGGAUAGCUAAAUAUCUUUGUAAGAUAGAGAUUGUUGAAAAUUCUAUUUUUGUUUUUCUAGUCCUUUCACCCCAGGACUCUAAAUUAUUGGG: 1.36
CUCAGCAGAGCACUGACACACACAGGAGACUUUUCUCGAUUAACCGCCCUGCCCGAGCAGCGUUCCUUUGGAGGGAGGCUGCAGAUCAUCCAGGGCUGCCCCUUCCGUUA: 0.324

For quick reference, copied from above (block 2):
GGUCAUCGCGCCCUUUCCCCUGCCGGUGUCCUGCUCGCCGUCCCCGCCAUGCUGUCUCUAGACUUUUUGGACGAUGUGCGGCGGAUGAACAAGCGGCAGCUCUAUUAUCAAGUCCUAAAU: 0.108 ratio
UAGUAUUAUAUAUACUGAACCUUCAGACUGUUAAGAAUCAAUGUAACUUUUUUUUUUUACUGUUAUUGUAAGCAACUAAUAUUUCACUGCACGUUUCCCACACUGGUGUUCAUUCCUAAC: 0.859 ratio
UCAACUAAUCGUGGUGUAAUUGUUGAAUCAGCGUAUUCUGAUAUAGUAAAAAUGAUCAGUGCUAACAUCUUCCGGACACUUCCUCCAAGUGAUAAUCCAGAUUUUGACCCGGAAGAGGAU: 0.28 ratio
GAGCCACCCGUUUUGCACUUCUCUCGCUUUUCUUCCUCCCUCUUUGGCUCCCAUUUCAAUGGACAGAAAGACUAUGUGGCAUCUCUAUUUUCAUUCACUUGGUUUAUUGUCUUGGUAUGU: 0.353 ratio
UCUCCCAUUCAAAUGUCAUCAUCCUUUUCUAUCUUGCAGGCAGGAUUGAUUUGAACAGGGAUUACUUCAACACACAUUUGUUUGUCUUUAUCUUUGUGUCAUUAUUGCAUGAUGUUGUUC: 0.139 ratio
CUCUGGGCUGUUUCAUAAGCAAGUGGUUUUAAUUAACUCACAAAGCCUUUCUAGACAUUAAUAUUUAUUUUAUUAUUAUUUUUUGUUUUGUUUGGUAUACAUACUACCCAGCAUCUCUUU: 11.7 ratio
GCAUUUGAAAGCUCAUGACAGAGCUAAAGAUCUGCCCCCCCUUCUCUCCCCUAUUUCUUUUAGGUGCCAUCUCAGUCUAAUCAUGGGUAUAAAUUCACCUUGGCCAGAGAAACUCACUAA: 0.435 ratio
GCCAUCAUCCCCUAUAUCCCCACUCUCAUCACGCAGCUCACACAGAAGCUGCUGGCUGUUAGUAAGAAUCCCAGUAAACCUCAUUUCAAUCACUACAUGUUUGAAGCAAUAUGCUUGUCU: 0.377 ratio
AAUAGCCUUCUAUUUUUAAUAGGAACCUAGAGAAUACUUAGGAUUAUCUAGAGUUGUUUCUUUAGAAUCUAGAACUAUUUAUUUGUAUUUAAACAAUGUCUAUGAUUUGUACCAAUUCUU: 1.88 ratio
UAUGAUUUGGCUGGUUCGUGUAGAGGGGUCAAGGUCAUGUUUAAUGGAAAGAAAUUGCCUGUAAAUGGAUUUCGCAGUUAUGUAGAUCUUUAUGUGAAAGACAAAUUGGAUGAAACUGGG: 0.482 ratio
